# Results collected from several papers.
# Protocols differ between the studies behind these lines. Several values in a cell are separate wells, animals, samples, runs or records. Numbers after ± are the reported error.
# TDP1: Tyrosyl-DNA phosphodiesterase 1 (TDP1, Homo sapiens, UniProt Q9NUW8)
# Sequence of UniProt Q9NUW8 (whole entry, looked up): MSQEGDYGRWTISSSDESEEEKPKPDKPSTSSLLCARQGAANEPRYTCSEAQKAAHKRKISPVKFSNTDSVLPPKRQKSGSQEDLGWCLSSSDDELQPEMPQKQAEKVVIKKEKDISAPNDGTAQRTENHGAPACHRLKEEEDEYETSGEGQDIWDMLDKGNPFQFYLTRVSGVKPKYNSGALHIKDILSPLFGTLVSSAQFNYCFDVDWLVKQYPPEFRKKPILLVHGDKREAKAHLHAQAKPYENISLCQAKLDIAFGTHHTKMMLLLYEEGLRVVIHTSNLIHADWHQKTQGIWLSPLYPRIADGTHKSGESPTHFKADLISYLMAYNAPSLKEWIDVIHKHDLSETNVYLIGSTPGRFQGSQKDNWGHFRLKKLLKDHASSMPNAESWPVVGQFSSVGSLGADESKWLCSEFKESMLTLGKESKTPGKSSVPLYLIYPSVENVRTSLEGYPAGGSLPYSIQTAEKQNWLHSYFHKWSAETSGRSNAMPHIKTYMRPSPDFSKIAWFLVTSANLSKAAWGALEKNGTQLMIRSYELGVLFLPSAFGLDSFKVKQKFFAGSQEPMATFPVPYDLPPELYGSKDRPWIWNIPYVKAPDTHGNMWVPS
# Uncharacterized protein: Uncharacterized protein (Trypanosoma brucei brucei, UniProt Q386Q8)
# OfChi-h: Chitinase (OfChi-h, Ostrinia furnacalis, UniProt Q4AE59)
# ADRB3: Beta-3 adrenergic receptor (ADRB3, Homo sapiens, UniProt P13945)
# Sequence of UniProt P13945 (whole entry, looked up): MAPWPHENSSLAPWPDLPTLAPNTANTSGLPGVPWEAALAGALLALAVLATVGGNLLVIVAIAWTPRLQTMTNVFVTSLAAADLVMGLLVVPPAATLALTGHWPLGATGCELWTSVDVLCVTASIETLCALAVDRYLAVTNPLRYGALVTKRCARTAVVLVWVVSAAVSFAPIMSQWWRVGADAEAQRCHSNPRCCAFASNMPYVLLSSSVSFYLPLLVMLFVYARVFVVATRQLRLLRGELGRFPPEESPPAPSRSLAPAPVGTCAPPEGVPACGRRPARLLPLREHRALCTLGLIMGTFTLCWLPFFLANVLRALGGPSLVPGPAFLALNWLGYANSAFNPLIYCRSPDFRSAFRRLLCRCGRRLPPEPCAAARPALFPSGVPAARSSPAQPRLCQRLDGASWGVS
# OPRK1: Kappa-type opioid receptor (OPRK1, Homo sapiens, UniProt P41145)
# Sequence of UniProt P41145 (whole entry, looked up): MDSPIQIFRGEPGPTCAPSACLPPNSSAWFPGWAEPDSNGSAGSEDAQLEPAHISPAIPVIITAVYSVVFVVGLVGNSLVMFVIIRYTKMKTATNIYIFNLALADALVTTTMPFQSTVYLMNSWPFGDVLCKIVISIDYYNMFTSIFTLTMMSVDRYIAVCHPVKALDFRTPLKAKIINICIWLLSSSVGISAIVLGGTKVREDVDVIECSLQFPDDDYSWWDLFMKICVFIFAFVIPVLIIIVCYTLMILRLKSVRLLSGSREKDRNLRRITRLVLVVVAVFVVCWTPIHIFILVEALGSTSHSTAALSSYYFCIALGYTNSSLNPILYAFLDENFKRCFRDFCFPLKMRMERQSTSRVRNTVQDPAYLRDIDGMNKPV
# ppa: Inorganic pyrophosphatase (ppa, Escherichia coli, UniProt P0A7A9)
# Sequence of UniProt P0A7A9 (whole entry, looked up): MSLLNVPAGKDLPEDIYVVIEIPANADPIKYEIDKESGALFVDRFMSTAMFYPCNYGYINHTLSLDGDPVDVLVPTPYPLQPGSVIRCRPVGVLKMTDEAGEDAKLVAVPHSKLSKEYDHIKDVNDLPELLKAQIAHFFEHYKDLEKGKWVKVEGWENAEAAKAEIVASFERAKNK
# MAP3K21: Mitogen-activated protein kinase kinase kinase 21 (MAP3K21, Homo sapiens, UniProt Q5TCX8)
# Sequence of UniProt Q5TCX8 (whole entry, looked up): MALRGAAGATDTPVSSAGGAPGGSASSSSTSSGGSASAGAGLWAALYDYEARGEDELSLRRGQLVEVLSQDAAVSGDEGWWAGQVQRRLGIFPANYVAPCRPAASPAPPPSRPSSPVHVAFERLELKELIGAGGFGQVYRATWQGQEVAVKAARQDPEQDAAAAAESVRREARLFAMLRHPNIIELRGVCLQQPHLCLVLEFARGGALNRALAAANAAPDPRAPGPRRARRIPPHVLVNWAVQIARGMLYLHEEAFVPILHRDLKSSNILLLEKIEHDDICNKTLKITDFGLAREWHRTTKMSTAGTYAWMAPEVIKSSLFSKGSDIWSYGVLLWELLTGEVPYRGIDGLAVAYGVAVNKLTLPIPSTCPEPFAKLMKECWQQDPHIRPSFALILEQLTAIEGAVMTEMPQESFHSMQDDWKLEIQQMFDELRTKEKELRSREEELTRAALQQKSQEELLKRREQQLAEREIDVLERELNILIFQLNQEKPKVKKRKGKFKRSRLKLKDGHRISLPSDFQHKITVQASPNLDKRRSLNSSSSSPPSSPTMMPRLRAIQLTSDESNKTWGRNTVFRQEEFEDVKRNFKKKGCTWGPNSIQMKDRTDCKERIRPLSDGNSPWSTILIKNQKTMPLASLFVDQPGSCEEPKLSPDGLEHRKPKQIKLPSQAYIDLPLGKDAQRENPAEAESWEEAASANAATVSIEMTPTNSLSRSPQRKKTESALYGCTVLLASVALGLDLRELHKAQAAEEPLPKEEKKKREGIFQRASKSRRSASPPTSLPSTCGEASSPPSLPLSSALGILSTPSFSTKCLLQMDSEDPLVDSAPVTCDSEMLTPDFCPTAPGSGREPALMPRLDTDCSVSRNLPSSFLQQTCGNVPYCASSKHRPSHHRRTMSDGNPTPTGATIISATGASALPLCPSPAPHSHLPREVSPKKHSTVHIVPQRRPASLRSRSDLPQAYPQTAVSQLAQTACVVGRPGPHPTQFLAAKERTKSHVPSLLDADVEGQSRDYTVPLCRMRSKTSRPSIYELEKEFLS
# Sequence of UniProt Q93009 (whole entry, looked up): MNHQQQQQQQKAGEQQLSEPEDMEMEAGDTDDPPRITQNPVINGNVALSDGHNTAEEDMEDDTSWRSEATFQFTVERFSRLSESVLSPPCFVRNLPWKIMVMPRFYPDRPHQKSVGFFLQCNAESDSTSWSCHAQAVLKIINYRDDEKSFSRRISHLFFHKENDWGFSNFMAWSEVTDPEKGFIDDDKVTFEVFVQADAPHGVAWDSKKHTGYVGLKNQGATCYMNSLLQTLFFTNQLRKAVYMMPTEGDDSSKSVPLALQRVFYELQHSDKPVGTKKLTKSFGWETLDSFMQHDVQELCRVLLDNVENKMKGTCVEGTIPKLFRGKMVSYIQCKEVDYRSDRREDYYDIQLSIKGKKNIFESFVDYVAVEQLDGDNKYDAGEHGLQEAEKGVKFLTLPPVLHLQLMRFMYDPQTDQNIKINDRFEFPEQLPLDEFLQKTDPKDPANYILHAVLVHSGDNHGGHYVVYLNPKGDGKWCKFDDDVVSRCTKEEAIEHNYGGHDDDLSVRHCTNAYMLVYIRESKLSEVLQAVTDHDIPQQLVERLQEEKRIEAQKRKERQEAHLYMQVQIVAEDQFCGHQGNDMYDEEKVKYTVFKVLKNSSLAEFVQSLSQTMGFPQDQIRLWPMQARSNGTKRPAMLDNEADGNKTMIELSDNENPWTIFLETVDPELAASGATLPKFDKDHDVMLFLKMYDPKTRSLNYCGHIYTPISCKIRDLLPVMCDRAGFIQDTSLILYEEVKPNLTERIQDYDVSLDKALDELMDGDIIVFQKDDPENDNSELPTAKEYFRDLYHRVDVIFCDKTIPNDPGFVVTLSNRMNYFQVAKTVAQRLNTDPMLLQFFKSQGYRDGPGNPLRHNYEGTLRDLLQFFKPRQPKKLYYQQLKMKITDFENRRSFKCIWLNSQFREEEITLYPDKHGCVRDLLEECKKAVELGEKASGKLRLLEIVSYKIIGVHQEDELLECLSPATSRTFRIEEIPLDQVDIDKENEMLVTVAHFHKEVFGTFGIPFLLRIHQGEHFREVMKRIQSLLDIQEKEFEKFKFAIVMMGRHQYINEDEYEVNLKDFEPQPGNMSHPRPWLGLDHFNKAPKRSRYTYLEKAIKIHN
# Sequence of UniProt Q5JUK3 (whole entry, looked up): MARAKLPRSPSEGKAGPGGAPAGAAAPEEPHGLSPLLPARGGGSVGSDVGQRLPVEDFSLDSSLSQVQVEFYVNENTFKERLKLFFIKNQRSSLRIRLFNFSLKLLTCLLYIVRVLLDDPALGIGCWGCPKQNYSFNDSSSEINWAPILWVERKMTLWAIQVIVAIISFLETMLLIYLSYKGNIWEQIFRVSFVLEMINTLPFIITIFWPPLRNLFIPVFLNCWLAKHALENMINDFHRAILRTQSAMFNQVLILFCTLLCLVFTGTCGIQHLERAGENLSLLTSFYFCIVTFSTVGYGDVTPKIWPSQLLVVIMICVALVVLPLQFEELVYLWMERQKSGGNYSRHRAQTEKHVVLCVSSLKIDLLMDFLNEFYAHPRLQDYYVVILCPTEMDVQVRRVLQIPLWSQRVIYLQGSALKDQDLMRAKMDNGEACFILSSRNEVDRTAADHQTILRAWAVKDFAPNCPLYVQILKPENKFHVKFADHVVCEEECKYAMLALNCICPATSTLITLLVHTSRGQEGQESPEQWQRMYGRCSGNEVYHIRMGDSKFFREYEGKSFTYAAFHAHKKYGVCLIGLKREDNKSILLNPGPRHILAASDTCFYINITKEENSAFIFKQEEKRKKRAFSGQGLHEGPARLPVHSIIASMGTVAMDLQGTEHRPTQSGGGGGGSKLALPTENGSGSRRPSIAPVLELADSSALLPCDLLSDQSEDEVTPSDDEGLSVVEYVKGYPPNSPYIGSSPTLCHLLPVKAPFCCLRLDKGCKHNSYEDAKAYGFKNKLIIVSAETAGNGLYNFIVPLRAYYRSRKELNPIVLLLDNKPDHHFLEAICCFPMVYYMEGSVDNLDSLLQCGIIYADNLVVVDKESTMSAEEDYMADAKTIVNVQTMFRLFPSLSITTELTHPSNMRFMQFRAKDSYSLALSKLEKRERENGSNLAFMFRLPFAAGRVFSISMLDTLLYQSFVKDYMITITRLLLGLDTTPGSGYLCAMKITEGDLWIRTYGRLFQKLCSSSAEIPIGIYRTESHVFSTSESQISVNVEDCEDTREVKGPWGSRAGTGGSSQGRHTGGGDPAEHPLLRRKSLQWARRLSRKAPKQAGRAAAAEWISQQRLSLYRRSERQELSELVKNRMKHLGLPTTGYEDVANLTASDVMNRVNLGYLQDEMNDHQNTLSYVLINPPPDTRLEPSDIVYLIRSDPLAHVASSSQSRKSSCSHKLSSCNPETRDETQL
SMILES,target,assay,test system,setting,inhibition
Oc1cc2c(cc1O)C(c1cccc3ccccc13)NCC2 (stereo not shown),tyrosinase,"enzyme activity, inhibitor",,"100 µM, together with: levodopa",15.7 ± 5.01%
COc1ccc(S(=O)(=O)N2CCc3ccccc3C2)cc1N1CCN(C(=O)c2ccc(F)cc2C(F)(F)F)CC1,"COMT (Sus scrofa, UniProt Q99028)","enzyme activity, inhibitor",,1 µM,-1.9%
CS(=O)(=O)Nc1cccc(-c2csc3cnc(Nc4ccc(N5CCN(CCCCCOc6cccc7c6C(=O)N(C6CCC(=O)NC6=O)C7=O)CC5)cc4)nc23)c1 (stereo not shown),"ILK (Homo sapiens, UniProt Q13418)","probe labelling, inhibitor, KiNativ chemoproteomics",MOLT-4,1 µM,26.9%
CCCC(=O)O[C@@]1(C)CN(Cc2ccccc2)[C@H]2C[C@@H]1CC(=O)[C@@H]2C,"Tmem97 (Rattus norvegicus, UniProt Q5U3Y7)","ligand displacement, radioligand",,1 µM,0%
CC1=NN(c2cccc(F)c2)C(=O)/C1=N\Nc1ccc(S(N)(=O)=O)cc1,bovine α-glucosidase,"enzyme activity, inhibitor, glucose oxidase",,"100 µg/mL, together with: maltose",30.5%
CN(C)C/C=C/C(=O)Nc1ccc2nc(NCCCCCN(C)C)nc(NCCCCCCN(C)C)c2c1,"EHMT1 (Homo sapiens, UniProt Q9H9B1)","enzyme activity, inhibitor, radiometric",,10 µM,57%
CCC(=O)N(C)c1ccc(Cl)c(Cl)c1,"NTSR1 (Homo sapiens, UniProt P30989)","ligand displacement, radioligand",,10 µM,< 10%
Cc1csc2sc(C=NOCc3ccc4nc(-c5ccccc5)c(Nc5ccc(C(=O)O)cc5)n4c3)c(C)c12,TDP1,"enzyme activity, inhibitor",,"100 µM, unpurified compound",12.2%
COc1ccc(NC(=O)Nc2cc(C(C)(C)C)on2)cc1OC,Uncharacterized protein,"enzyme activity, inhibitor, coupled colorimetric",,"30 µM, together with: E. coli pyrophosphatase coupling",22.6%
Cc1cc(Cl)cc(-c2ccnc3cc(CN4C(=O)C5C(C4=O)C5(C)C)sc23)c1C[C@@H]1CNCCO1 (stereo partly shown),"USP7 (Homo sapiens, UniProt Q93009)","enzyme activity, inhibitor",,50 µM,100% and 102%
COc1ccc(C=NOCc2ccc(-c3nc4cc(-c5ccccc5)ccn4c3Nc3ccc(C(=O)O)cc3)cc2)cc1OCC#N,TDP1,"enzyme activity, inhibitor",,"100 µM, unpurified compound",33.2%
COc1cc(OC)c(F)c(/C=C/c2cnc3ccn(S(=O)(=O)c4cn(CCF)cn4)c3n2)c1F,"SRC (Homo sapiens, UniProt P12931)",,,10 nM,0%
CN(C)c1nc(NCc2ccc(-c3ccccc3)cc2)c(/N=N/c2ccc(Cl)cc2)c(N(C)C)n1,OfChi-h,"enzyme activity, inhibitor, fluorescence",,1 µM,88.1%
Brc1ccccc1-c1nnc(CSc2nnnn2-c2ccccc2)o1,ADRB3,"ligand displacement, radioligand",,10 µM,27%
C[N+](C)(CCCN1c2ccccc2CCc2ccc(Cl)cc21)CC(=O)c1ccccc1,Uncharacterized protein,"enzyme activity, inhibitor, coupled colorimetric",,"30 µM, together with: E. coli pyrophosphatase coupling",27.7%
COc1c(C=NOCc2ccc(-c3nc4cc(-c5ccccc5)ccn4c3Nc3ccc(C(=O)O)cc3)cc2)c(C)nn1C (mixture of isomers),TDP1,"enzyme activity, inhibitor",,"100 µM, unpurified compound",60.3%
Cc1nc2c(F)cc(-c3nc(Nc4ccc(CNC(=O)CCCCCCC(=O)NO)cc4)ncc3F)cc2n1C(C)C,"TSSK4 (Homo sapiens, UniProt Q6SA08)","enzyme activity, inhibitor",,1 µM,30%
CC(=O)C1=C(c2ccc(OC(F)F)cc2)N(C(C)=O)n2cnnc2S1,Uncharacterized protein,"enzyme activity, inhibitor, coupled colorimetric",,"30 µM, together with: E. coli pyrophosphatase coupling",38%
O=C(O)c1ccc(Nc2c(-c3ccc(CON=Cc4ccc(S(=O)(=O)c5ccc(Cl)cc5)cc4)cc3)nc3cc(-c4ccccc4)ccn23)cc1 (mixture of isomers),TDP1,"enzyme activity, inhibitor",,"100 µM, unpurified compound",76.3%
Cc1cc(O)ccc1N/C=C/C(=O)c1ccccc1,"KCNT1 (Homo sapiens, UniProt Q5JUK3)","ion current, inhibitor, patch clamp",HEK293,10 µM,> 40%
CN(Cc1ccc(/C=C/C(=O)NO)cc1)CC12CC3CC(CC(C3)C1)C2,human GAL1 receptor,radioligand binding,,0.05 µM,-9%
N#Cc1cccc(-n2cccc2C=NOCc2ccc3nc(-c4ccccc4)c(Nc4ccc(C(=O)O)cc4)n3c2)c1,TDP1,"enzyme activity, inhibitor",,"100 µM, unpurified compound",-3.2%
C[Si]1(C[C@H](CN)CC(=O)O)CCCC1,OPRK1,"ligand displacement, radioligand",,70 µM,-11%
C[N+](C)(CCCN1c2ccccc2CCc2ccc(Cl)cc21)Cc1ccc2ccccc2c1,Uncharacterized protein,"enzyme activity, inhibitor, coupled colorimetric",,"30 µM, together with: E. coli pyrophosphatase coupling",36.1%
CC1=NN(c2ccccc2F)C(=O)/C1=N\Nc1ccc(S(N)(=O)=O)cc1,bovine α-glucosidase,"enzyme activity, inhibitor, glucose oxidase",,"500 µg/mL, together with: maltose",45.7%
C[Si](C)(C)C[C@H](CN)CC(=O)O,OPRK1,"ligand displacement, radioligand",,250 µM,5%
O=C1c2sc(-c3ccc(N4CCC(F)C4)nc3F)nc2CCN1c1cccnc1 (stereo not shown),"PTGIR (Homo sapiens, UniProt P43119)","ligand displacement, radioligand",,1 µM,7%
COc1nc2c(C)cccn2c(=O)c1C=NOCc1ccc2nc(-c3ccccc3)c(Nc3ccc(C(=O)O)cc3)n2c1,TDP1,"enzyme activity, inhibitor",,"100 µM, unpurified compound",-19%
C[N+](C)(CCCN1c2ccccc2CCc2ccc(Cl)cc21)Cc1ccccc1,Uncharacterized protein,"enzyme activity, inhibitor, coupled colorimetric",,"30 µM, together with: E. coli pyrophosphatase coupling",41.7%
CN(C)c1nc(-c2ccccc2)c(C=NOCc2ccc3nc(-c4ccccc4)c(Nc4ccc(C(=O)O)cc4)n3c2)c(=O)o1,TDP1,"enzyme activity, inhibitor",,"100 µM, unpurified compound",1.3%
COc1cc(-c2cn(C)c(=O)c3cnccc23)cc(OC)c1CN(C)C,"Bromodomain-containing protein 4, BD2 (BRD4, Homo sapiens, UniProt O60885)",,,1 µM,-4.72%
Oc1cccc(C2NCCc3cc(O)c(O)cc32)c1 (stereo not shown),tyrosinase,"enzyme activity, inhibitor",,"100 µM, together with: levodopa",-5.64 ± 2.37%
CN(C)c1nc(NCc2cccc3ccccc23)c(/N=N/c2ccc(Cl)cc2)c(N(C)C)n1,OfChi-h,"enzyme activity, inhibitor, fluorescence",,1 µM,83.9%
O=C(NCCCCc1ccccc1)n1c(=O)oc2cc(-c3ccc(F)cc3)ccc21,monoacylglycerol lipase,enzyme activity,,10 µM,17.1%
Cc1ccnc(OC[C@H]2CN(CCN3CCc4ccccc43)CCO2)c1,"HTR4 (Homo sapiens, UniProt Q13639)",radioligand binding,,concentration not given,45%
O=C(CSc1nnc(-c2ccco2)c(-c2ccco2)n1)c1ccc(Br)cc1,ppa,"inhibitor, counter-screen, coupling enzyme alone",,30 µM,2.6%
CN1CCN(Cc2ccc(-c3ccc(CO[C@H]4CCC[C@@H]4NC(=O)c4cc(-c5cnn(C)c5)cnc4N)cc3)cc2)CC1,MAP3K21,"enzyme activity, inhibitor",,0.1 µM,0%
COc1ccc(C(=O)Nc2c(-c3cccs3)nc3ccccn23)cc1,ADRB3,"ligand displacement, radioligand",,10 µM,< 50%
Cc1cc(C=NOCc2ccc(-c3nc4cc(-c5ccccc5)ccn4c3Nc3ccc(C(=O)O)cc3)cc2)c(C)n1-c1ccc(N2CCCC2)c([N+](=O)[O-])c1 (mixture of isomers),TDP1,"enzyme activity, inhibitor",,"100 µM, unpurified compound",75.8%
COc1ccc2c(c1OC)C(=O)N(c1nc3ccccc3s1)C2,Uncharacterized protein,"enzyme activity, inhibitor, coupled colorimetric",,"30 µM, together with: E. coli pyrophosphatase coupling",22.5%
CCn1cc(C(=O)O)c(=O)c2c(N)c(F)c(NC3CCCCC3)cc21,MAP3K21,kinase activity,,"0.1 µM, together with: ATP at Km",8.8%
C[N+]1(Cc2ccccc2)CCN(CCCN2c3ccccc3Sc3ccc(Cl)cc32)CC1,ppa,"inhibitor, counter-screen, coupling enzyme alone",,30 µM,29.3%
O=C1c2sc(-c3ccc(N4CCC(CO)CC4)nc3F)nc2CCN1c1cccnc1,central benzodiazepine receptor,radioligand binding,,"1 µM, together with: agonist radioligand",-2%

# Some of these lines once more:
SMILES,target,assay,test system,setting,inhibition
COc1cc(-c2cn(C)c(=O)c3cnccc23)cc(OC)c1CN(C)C,"Bromodomain-containing protein 4, BD2 (BRD4, Homo sapiens, UniProt O60885)",,,1 µM,-4.72%
COc1ccc2c(c1OC)C(=O)N(c1nc3ccccc3s1)C2,Uncharacterized protein,"enzyme activity, inhibitor, coupled colorimetric",,"30 µM, together with: E. coli pyrophosphatase coupling",22.5%
COc1c(C=NOCc2ccc(-c3nc4cc(-c5ccccc5)ccn4c3Nc3ccc(C(=O)O)cc3)cc2)c(C)nn1C (mixture of isomers),TDP1,"enzyme activity, inhibitor",,"100 µM, unpurified compound",60.3%
CN(C)c1nc(-c2ccccc2)c(C=NOCc2ccc3nc(-c4ccccc4)c(Nc4ccc(C(=O)O)cc4)n3c2)c(=O)o1,TDP1,"enzyme activity, inhibitor",,"100 µM, unpurified compound",1.3%
CN(Cc1ccc(/C=C/C(=O)NO)cc1)CC12CC3CC(CC(C3)C1)C2,human GAL1 receptor,radioligand binding,,0.05 µM,-9%
C[N+](C)(CCCN1c2ccccc2CCc2ccc(Cl)cc21)Cc1ccccc1,Uncharacterized protein,"enzyme activity, inhibitor, coupled colorimetric",,"30 µM, together with: E. coli pyrophosphatase coupling",41.7%
